Measurements of several laboratories.
A part holds a random share of what one study measured.

Study 1
Target: Interferon regulatory factor 7, full length, phosphomimetic (IRF7, Homo sapiens, UniProt Q92985, residues 1-503, S101K/S471D/S472D/S475D/S476D/S477D/S483D/S484D/S487D)
Sequence of UniProt Q92985 (whole entry, unmodified, looked up): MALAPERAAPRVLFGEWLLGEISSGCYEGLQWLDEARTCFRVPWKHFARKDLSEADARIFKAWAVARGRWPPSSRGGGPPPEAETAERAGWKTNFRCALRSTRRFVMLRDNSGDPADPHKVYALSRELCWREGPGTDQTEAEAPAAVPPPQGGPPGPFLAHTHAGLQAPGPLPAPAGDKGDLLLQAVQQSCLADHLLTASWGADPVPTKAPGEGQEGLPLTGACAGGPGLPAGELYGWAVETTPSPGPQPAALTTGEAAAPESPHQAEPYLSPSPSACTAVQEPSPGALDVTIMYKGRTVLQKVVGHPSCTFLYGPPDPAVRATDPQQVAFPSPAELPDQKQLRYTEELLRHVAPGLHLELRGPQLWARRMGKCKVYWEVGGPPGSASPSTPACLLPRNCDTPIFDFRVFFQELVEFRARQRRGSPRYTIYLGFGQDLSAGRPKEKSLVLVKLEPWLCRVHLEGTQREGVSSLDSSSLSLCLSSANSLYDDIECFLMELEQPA
Method: protein-binding microarray
Molecule type: double-stranded DNA, one strand shown
Matrix: in vitro
Concentration: 250 nM
Notes: 60-bp whole probe
Added: salmon DNA 0.4 mg/ml
Baseline: random background probes
Direction: higher = stronger binding
Shared flanks, not repeated: GCCTAGCAC … GTCTTGATTCGCTTGACGCTGCTG
Oligonucleotide	log fluorescence [z-score]
TTAGATTTCGGGACTGGATTAGTGCTA	0.562
TTAGAACTGAGTCTCGATTGGTGCTAG	1.84
TTAGGTTTCGGGTTTCGCTTAGTGCTA	12.1
GACGGACTGGAAACTGGGGACGTGCTA	-0.062
TTAGATTTCAGTATCCATTAGTGCTAG	0.423
GACGGTATCTGGACTGGGGACGTGCTA	-0.144
GACGGTAACGACTTTCGGGACGTGCTA	-0.122
TTAGATTTCCTTATCCTTTAGTGCTAG	1.14
TTAGAAATCAGTTTCGATTAGTGCTAG	8.77
GACGGCCTCGGTCTCGGGACGTGCTAG	0.0801
GACTCTTCAGCACTCGGGTCGTGCTAG	0.713
GACGATTTCGGGACTGAAGACGTGCTA	0.125
TTAGGACTGGGTTTCGGATAGTGCTAG	3.17
CTTTAACTTATTCTCTACTTGTGCTAG	1.25
GACGGTCTGCTTCTCCTGACGTGCTAG	-0.347
GACGATTTCGGGTTTCCAGACGTGCTA	2
TTAGGTCTCCTTCTCCTTTCGTGCTAG	0.407
AGCTATCACTATTCTAGGGAAGTGCTA	-0.311
TCATTTCTCTCTGTGACACTGTGCTAG	2.08

Study 2
Target: RNA binding protein fox-1 homolog 2, RRM domain, GST-SBP tag (RBFOX2, Homo sapiens, UniProt O43251-10, residues 100-194)
Method: RNA Bind-n-Seq
Molecule type: RNA
Matrix: in vitro
Concentration: 365 nM
Notes: natural RNA segment, single round, ends assumed
Baseline: no-protein control
Direction: higher = stronger binding
Shared flanks, not repeated: GGGAGUUCUACAGUCCGACGAUC … UGGAAUUCUCGGGUGCCAA
Construct (chain): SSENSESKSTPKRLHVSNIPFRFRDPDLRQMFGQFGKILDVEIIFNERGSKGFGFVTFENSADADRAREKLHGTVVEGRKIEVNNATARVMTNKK
Oligonucleotide	RBNS enrichment (R)
GAGCGAAGACUGCUCCUGGUGGCCUGUGCAUAGGGAAGCGGCAGCAUCGGAUGUCAGCCCCCUGCGGCCCCAGCUGGAGAUGGAUAUGAGACUAGUCAAGAUGUGAAUGC	1.65
GUCAAGUCGGAGAGGGACUCUUCAGUAUGGAGGCAGCCUGUGGAGUGCAGCGCCUUUGAGGCUCUGGGUGUAAGACAGUUUCCUUCCCUGACUCUCGUGCACAGACAGCA	12.5
ACAUACAUGGGGGCAUGUCAUGGGGAUAGAUCAAGAGGCACCAGCCAUUCUUGAGUUUGCCAGCUCCAUCCCAGGCUCCAAGUGCUGUGACUGGUGACUCUCAGGCAGGC	0.789
UGGGCCGUGGCUUUCAGUUCUCAGCACAGACAUCUGUGUUUUUCUCGUCCAACCCUAAGCCUCUUCCUUAAGGUUCUUGUGACAGAUCCAGUUCAGGGAGGAGGCACUGA	0.253
CAGCAUUUAAAGAGAGGAAGGAGAACCAUCCUGGACACUCCGGGCUGUGCAUGUUUAAAGAAAUGUCCCUUAUGAGAAUGAAAGCUGAUUCCGUGUCCCAACUUUAGAGA	54.1
CUGUCCACGGUUCCUUUGUUCUAGGCUGUGAACCCGUCCUUGUCUCUUCCCCCACUGUGUGUUUAAACCUUAAUGGUUUGGGAUGUGAACGUGUGUUGGCUAGCUGUAAA	0.493
CCAAAUCAGAACAGCUCAGCAACCCCUGAAUUUGACAGUCUCACCAAUUUCAGAAAAUCAUUAAAAAGAAAAUAUUGAAAGGAAAAUGUUUUCUUUUUGAAGACUUCUGG	0.742
AAGUAAUUUCAGAAGAAAUUCUGCAAGCUUUUCAAAAUUGGACUUAAAAUCUAAUUCAAACUAAUAGAAUUAAUGGAAUAUGUAAAUAGAAACGUGUAUAUUUUUUAUGA	1.26
UUGAAAAAAUAGGAACUCGGGCAGCAGAAUCAGAUUGGCAGAAUCUUUAGACUACACAGGCAAUAAUCAAGUCUGCUGUUUUGGCCUUUCGUAGUAGAAGUGGUUGUAGU	0.365
UGGGCUGCCGCAGGGCACUGAAAGCCCAGGACCAGUAACCAAGGAGAACAACCCACCCGUCGCCCUUCUCCGUAUGCUGCCUGCGCCAGAAGAGCUUUGCUGGGCCCUGG	0.489
GCUUAGAUACCCAUAAAAUGCAAAAGGCACAGGUGUGUUGAAUAUUCAGAAGUCAAAGAAAUUACAUGUUUGGGAUUGAUGAGUCUUUAGGGCAGAAGCCAGCUGCAGAA	0.644
AGGGGAUGUGGAGUGAGAACAGCAUUUAGUGAAGUUGUGCAACGGCCAGGGUUGUGCUUUCUAGCAAAUAUGCUGUUAUGUCCAGAAAUUGUGUGUGCAAGAAAACUAGG	1.45

Study 3
Target: Fragile X messenger ribonucleoprotein 1, C-terminal low-complexity region (Fmr1, Mus musculus, UniProt P35922)
Method: RNA Bind-n-Seq
Molecule type: RNA
Matrix: in vitro
Concentration: 200 nM
Notes: whole 134-nt RNA, ends assumed
Added: 150 mM KCl
Baseline: input library
Direction: higher = stronger binding
Shared flanks, not repeated: GGGAGUUCUACAGUCCGACGAUC … UGGAAUUCUCGGGUGUCAAGG
Oligonucleotide	log2 enrichment
UGCAGGGUCUGGGUAGCAGCUGGGCUUCCAGCUUUCUCCUUGCACCUGACUUGGGCUUUUUUCUCCUCACAGGAUGGGCCUUGACGGCAU	-0.451
UUCCUCAAGUCCUGUGCUACACAUCGUAUGUACCGAAUCGGAGGAGGAGGGAAAGUAUUAUGUUACGCCGUUCGGAUCUGCACUUCCAGC	-0.727
UCAAGUCCUGUGCUACACAUCGUAUGUACCGAAUCGGGAAAGGGUUUGGGUGGGAAAGUAUUAUGUUACGCCGUUCGGAUCUGCACUUCC	1.28
UCGUUCCCCCCGCCACGAGAAGAAGAAGAAGGUCCGUAAAUACUGGGACGUGCCACCCCCAGGCUUUGAGCACAUCACCCCAAUGCAGUA	0.299
CGCAGAAGUCGCGUGUCUAGGUGAGUCGCGGUGGGUCCUCGCUUGCAGUUCAGCGACCACGGUGGGUACCGUUUUUGCGAGGAUUGUUUG	-1.59
UGGCCCUGGUGGCAUGCGGGGAGGAAUAGGUGGCCUCAUGGAUCGUGGUGGUCCCGGUGGAAUGUUCAGAGGUGGCCGUGGUGGAGACAG	-0.018
GUCCUGUGCUACACAUCGUAUGUACCGAAUCGGCCCCCGGGGCCCCCGGGCCCCCGGGAAAGUAUUAUGUUACGCCGUUCGGAUCUGCAC	-0.276
UGGUGUUAUUUUUGCACUACAAGGGCUCUGAAGACUGCCAGGCUUGAAAUGAAGAACGAUGUCACCUGCCUAUCACAGCCAGGUGACAAU	-2.27
GUCCUGUGCUACACAUCGUAUGUACCGAAUCGGGAGGGAAAAAAAGGGAAAAAAAGGGAAAGUAUUAUGUUACGCCGUUCGGAUCUGCAC	0.0248
CCUGUGCUACACAUCGUAUGUACCGAAUCGGAAAAAAAGGAAAAAAAGGGGAAAAAAAGGGAAAGUAUUAUGUUACGCCGUUCGGAUCUG	-1.05
AGUCCUGUGCUACACAUCGUAUGUACCGAAUCAAAUUUUUAAAUUUAAACCCCCAAAAAAGUAUUAUGUUACGCCGUUCGGAUCUGCACU	-0.0181
AGUCCUGUGCUACACAUCGUAUGUACCGAAUCGGGUUUUGGGGUUUUGGGUUUUGGGAAAGUAUUAUGUUACGCCGUUCGGAUCUGCACU	0.666
GCAGGAAGUAAAAACAAAUGGAAAUGCUUCGGAUAGUGGCAGGGGUGGGGGUUGCUAAGGAAAGGGUGGGAUGGGAGUGGGUAAAGCGUU	0.447
CUCAAGUCCUGUGCUACACAUCGUAUGUACCGAAUCGGGCCGGGCCGGGCCGGAAAGUAUUAUGUUACGCCGUUCGGAUCUGCACUUCCA	0.0286

Study 4
Target: Histone acetyltransferase KAT6A, winged helix 2, GST fusion (KAT6A, Homo sapiens, UniProt Q92794, residues 85-181)
Method: protein binding microarray
Molecule type: double-stranded DNA, one strand shown
Matrix: in vitro
Concentration: not given
Notes: 8-mer, flanks averaged, mean of 2 arrays, mostly near background
Baseline: not given
Direction: higher = stronger binding
Residues (chain): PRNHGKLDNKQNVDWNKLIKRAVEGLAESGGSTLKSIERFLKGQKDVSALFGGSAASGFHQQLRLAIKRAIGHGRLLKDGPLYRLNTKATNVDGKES
Oligonucleotide	E-score
CCCGCCAG	0.0645
GAGGGAAA	0.0914
CTGATGGA	-0.0156
ATTTGAGC	-0.012
CCGCAAAG	0.152
ATTGGCAA	0.0902
AGCTCTGC	-0.059
ATTACATA	-0.00248
ACTGTGAT	-0.17
AAATGCGC	0.18
ACCTATGG	0.0164
AGGCATTG	-0.141
GAGCTTAA	0.0207
CCGTTGAA	-0.115
CTCAATGA	-0.0627
ATCCGGAT	0.13
CCTAATAG	-0.0874
AGTTTGAA	-0.0182
ACTCCGAA	0.0281
TAATAATA	0.142
GGACTCGA	-0.238
GCCGTCCA	0.176

Some of these lines once more (study 2):
Oligonucleotide	RBNS enrichment (R)
CAGCAUUUAAAGAGAGGAAGGAGAACCAUCCUGGACACUCCGGGCUGUGCAUGUUUAAAGAAAUGUCCCUUAUGAGAAUGAAAGCUGAUUCCGUGUCCCAACUUUAGAGA	54.1
AAGUAAUUUCAGAAGAAAUUCUGCAAGCUUUUCAAAAUUGGACUUAAAAUCUAAUUCAAACUAAUAGAAUUAAUGGAAUAUGUAAAUAGAAACGUGUAUAUUUUUUAUGA	1.26
AGGGGAUGUGGAGUGAGAACAGCAUUUAGUGAAGUUGUGCAACGGCCAGGGUUGUGCUUUCUAGCAAAUAUGCUGUUAUGUCCAGAAAUUGUGUGUGCAAGAAAACUAGG	1.45
GAGCGAAGACUGCUCCUGGUGGCCUGUGCAUAGGGAAGCGGCAGCAUCGGAUGUCAGCCCCCUGCGGCCCCAGCUGGAGAUGGAUAUGAGACUAGUCAAGAUGUGAAUGC	1.65
UUGAAAAAAUAGGAACUCGGGCAGCAGAAUCAGAUUGGCAGAAUCUUUAGACUACACAGGCAAUAAUCAAGUCUGCUGUUUUGGCCUUUCGUAGUAGAAGUGGUUGUAGU	0.365
UGGGCUGCCGCAGGGCACUGAAAGCCCAGGACCAGUAACCAAGGAGAACAACCCACCCGUCGCCCUUCUCCGUAUGCUGCCUGCGCCAGAAGAGCUUUGCUGGGCCCUGG	0.489
CUGUCCACGGUUCCUUUGUUCUAGGCUGUGAACCCGUCCUUGUCUCUUCCCCCACUGUGUGUUUAAACCUUAAUGGUUUGGGAUGUGAACGUGUGUUGGCUAGCUGUAAA	0.493
